Published values collected from several papers.
Lines come from different studies, so protocols differ.
Technique: steady-state kinetics
B1: Mj-MAT (Methanocaldococcus jannaschii, UniProt Q58605); chain MRNIIVKKLDVEPIEERPTEIVERKGLGHPDSICDGIAESVSRALCKMYMEKFGTILHHNTDQVELVGGHAYPKFGGGVMVSPIYILLSGRATMEILDKEKNEVIKLPVGTTAVKAAKEYLKKVLRNVDVDKDVIIDCRIGQGSMDLVDVFERQKNEVPLANDTSFGVGYAPLSTTERLVLETERFLNSDELKNEIPAVGEDIKVMGLREGKKITLTIAMAVVDRYVKNIEEYKEVIEKVRKKVEDLAKKIADGYEVEIHINTADDYERESVYLTVTGTSAEMGDDGSVGRGNRVNGLITPFRPMSMEAASGKNPVNHVGKIYNILANLIANDIAKLEGVKECYVRILSQIGKPINEPKALDIEIITEDSYDIKDIEPKAKEIANKWLDNIMEVQKMIVEGKVTTF
B2: FDC1 (Saccharomyces cerevisiae, UniProt Q03034); chain MRKLNPALEFRDFIQVLKDEDDLIEITEEIDPNLEVGAIMRKAYESHLPAPLFKNLKGASKDLFSILGCPAGLRSKEKGDHGRIAHHLGLDPKTTIKEIIDYLLECKEKEPLPPITVPVSSAPCKTHILSEEKIHLQSLPTPYLHVSDGGKYLQTYGMWILQTPDKKWTNWSIARGMVVDDKHITGLVIKPQHIRQIADSWAAIGKANEIPFALCFGVPPAAILVSSMPIPEGVSESDYVGAILGESVPVVKCETNDLMVPATSEMVFEGTLSLTDTHLEGPFGEMHGYVFKSQGHPCPLYTVKAMSYRDNAILPVSNPGLCTDETHTLIGSLVATEAKELAIESGLPILDAFMPYEAQALWLILKVDLKGLQALKTTPEEFCKKVGDIYFRTKVGFIVHEIILVADDIDIFNFKEVIWAYVTRHTPVADQMAFDDVTSFPLAPFVSQSSRSKTMKGGKCVTNCIFRQQYERSFDYITCNFEKGYPKGLVDKVNENWKRYGYK
B3: ACP1 (Homo sapiens, UniProt P24666); chain AEQATKSVLFVCLGNICRSPIAEAVFRKLVTDQNISENWRVDSAATSGYEIGNPPDYRGQSCMKRHGIPMSHVARQITKEDFATFDYILCMDESNLRDLNRKSNQVKTCKAKIELLGSYDPQKQLIIEDPYYGNDSDFETVYQQCVRCCRAFLEKAH
B4: nicX (Pseudomonas putida, UniProt Q88FY1); chain MPVSNAQLTQMFEHVLKLSRVDETQSVAVLKSHYSDPRTVNAAMEAAQRLKAKVYAVELPAFNHPTAMGNDMTAYCGDTALTGNLAAQRALEAADLVVDTMMLLHSPEQEQILKTGTRILLAVEPPEVLARMLPTEDDKRRVLAAETLLKQARSLHVRSKAGSDFHAPLGQYPAVTEYGYADEPGRWDHWPSGFLFTWPNEDSAEGTLVLDVGDIILPFKNYCRERITLEIEKGFITGIHGGFEAEYLRDYMKYFNDPEVYGISHIGWGLQPRAQWTAMGLHDRNDGMCMDARAFYGNFLFSTGPNTEVGGKRKTPCHLDIPLRNCDIYLDDKAVVLAGDVVAPEESRAR
B5: enzyme E323G (UniProt H9KVH3); chain ADASQIVSEMGAGWNLGNQLEAAVNGTPNETAWGNPTVTPELIKKVKAAGFKSIRIPVSYLNNIGSAPNYTINAAWLNRIQQVVDYAYNEGLYVIINIHGDGYNSVQGGWLLVNGGNQTAIKEKYKKVWQQIATKFSNYNDRLIFESMNEVFDGNYGNPNSAYYTNLNAYNQIFVDTVRQTGGNNNARWLLVPGWNTNIDYTVGNYGFTLPTDNYRSSAIPSSQKRIMISAHYYSPWDFAGEENGNITQWGATSTNPAKKSTWGQEDYLESQFKSMYDKFVTQGYPVVIGGFGSIDKTSYDSSNNVYRAAYAKAVTAKAKKYKMVPVYWDNGHNGQHGFALFNRSNNTVTQQNIINAIMQGMQ
B6: Nudt8 (Mus musculus, UniProt Q9CR24); chain MLPDGLSAEDEQRCRQLLARTTARLRSRPAAAAVLVPLCLVRGVPALLYTLRSSRLVGRHKGEVSFPGGKCDPDDQDVIHTALRETQEELGLEVPKEHVWGVLQPVYDREKATIVPVLANVGPLDLQSLRPNLEEVDEVFEMSLAHLLQTQNQGYTHFCQGGHFSYTLPVFLHGPHRVWGLTAVITELTLKLLAPGFYQPSLAVPELPRG
B7: protein (Danio rerio, UniProt A0A8M1P203); chain MAQEECKMISDKLLKYKETVLTLEPSYDITPEYIDSIQDFETRDDDVFVVTFPKSGTVWTQRIITLIYEEDFPEKAKQITFEQMPWIEYRKKGKDYSTRPSPRLFCSHLLEPLMPKTLKRKGKVIYVMRNPKDVMVSYFHFSKKMKNLDSAKSYDEVLENFLTGCMVGGSWFDHVKGWVTSKDKYNILILTYEEMIKDLRSVIVKICEFVGKNLSDAAIDKVVERATFKQMKVDPVANYESLPVDITDQPKGAFMRKGTVGDWRNSLTMAQSECVDGALEERMKDVPLNLVWDITELRG
B8: rebH G112S/K145M/M71V/N467T/N470S/S2P (Lentzea aerocolonigenes, UniProt Q8KHZ8); chain MPGKIDKILIVGGGTAGWMAASYLGKALQGTADITLLQAPDIPTLGVGEATIPNLQTAFFDFLGIPEDEWVRECNASYKVAIKFINWRTAGEGTSEARELDGGPDHFYHSFSLLKYHEQIPLSHYWFDRSYRGKTVEPFDYACYMEPVILDANRSPRRLDGSKVTNYAWHFDAHLVADFLRRFATEKLGVRHVEDRVEHVQRDANGNIESVRTATGRVFDADLFVDCSGFRGLLINKAMEEPFLDMSDHLLNDSAVATQVPHDDDANGVEPFTSAIAMKSGWTWKIPMLGRFGTGYVYSSRFATEDEAVREFCEMWHLDPETQPLNRIRFRVGRNRRAWVGNCVSIGTSSCFVEPLESTGIYFVYAALYQLVKHFPDKSLNPVLTARFNREIETMFDDTRDFIQAHFYFSPRTDTPFWRANKELRLADGMQEKIDMYRAGMAINAPASDDAQLYYGNFEEEFRNFWTNSSYYCVLAGLGLVPDAPSPRLAHMPQATESVDEVFGAVKDRQRNLLETLPSLHEFLRQQHGR
B9: Tat (Mus musculus, UniProt Q8QZR1); chain WNVRPSDMSNKTFNPIRAIVDNMKVKPNPNKTVISLSIGDPTVFGNLPTDPEVTQAMKDALDSGKYNGYAPSIGYLSSREEVASYYHCPEAPLEAKDVILTSGCSQAIELCLAVLANPGQNILIPRPGFSLYRTLAESMGIEVKLYNLLPEKSWEIDLKQLESLIDEKTACLVVNNPSNPCGSVFSKRHLQKILAVAERQCVPILADEIYGDMVFSDCKYEPMATLSTNVPILSCGGLAKRWLVPGWRLGWILIHDRRDIFGNEIRDGLVKLSQRILGPCTIVQGALKSILQRTPQEFYQDTLSFLKSNADLCYGALSAIPGLQPVRPSGAMYLMVGIEMEHFPEFENDVEFTERLIAEQSVHCLPATCFEYPNFFRVVITVPEVMMLEACSRIQEFCEQHY
Sequence of UniProt P00813 (whole entry, looked up): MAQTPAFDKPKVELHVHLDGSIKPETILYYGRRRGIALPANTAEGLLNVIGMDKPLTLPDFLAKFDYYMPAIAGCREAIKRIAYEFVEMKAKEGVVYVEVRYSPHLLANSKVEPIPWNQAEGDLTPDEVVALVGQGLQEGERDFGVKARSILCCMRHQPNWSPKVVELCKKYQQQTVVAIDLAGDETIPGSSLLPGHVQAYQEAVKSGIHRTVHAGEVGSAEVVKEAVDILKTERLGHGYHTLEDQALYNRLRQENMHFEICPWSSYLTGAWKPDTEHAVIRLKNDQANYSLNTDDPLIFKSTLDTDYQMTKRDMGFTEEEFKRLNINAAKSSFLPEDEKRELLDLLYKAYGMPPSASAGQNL
Sequence of UniProt A8M783 (whole entry, looked up): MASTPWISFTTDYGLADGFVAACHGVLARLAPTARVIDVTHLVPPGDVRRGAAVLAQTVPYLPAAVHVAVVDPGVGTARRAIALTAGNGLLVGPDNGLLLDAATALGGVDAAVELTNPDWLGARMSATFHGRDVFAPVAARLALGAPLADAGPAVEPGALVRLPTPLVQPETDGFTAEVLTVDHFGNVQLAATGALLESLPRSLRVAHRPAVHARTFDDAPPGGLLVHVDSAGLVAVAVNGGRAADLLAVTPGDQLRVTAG
Sequence of UniProt J9VYP5 (whole entry, looked up): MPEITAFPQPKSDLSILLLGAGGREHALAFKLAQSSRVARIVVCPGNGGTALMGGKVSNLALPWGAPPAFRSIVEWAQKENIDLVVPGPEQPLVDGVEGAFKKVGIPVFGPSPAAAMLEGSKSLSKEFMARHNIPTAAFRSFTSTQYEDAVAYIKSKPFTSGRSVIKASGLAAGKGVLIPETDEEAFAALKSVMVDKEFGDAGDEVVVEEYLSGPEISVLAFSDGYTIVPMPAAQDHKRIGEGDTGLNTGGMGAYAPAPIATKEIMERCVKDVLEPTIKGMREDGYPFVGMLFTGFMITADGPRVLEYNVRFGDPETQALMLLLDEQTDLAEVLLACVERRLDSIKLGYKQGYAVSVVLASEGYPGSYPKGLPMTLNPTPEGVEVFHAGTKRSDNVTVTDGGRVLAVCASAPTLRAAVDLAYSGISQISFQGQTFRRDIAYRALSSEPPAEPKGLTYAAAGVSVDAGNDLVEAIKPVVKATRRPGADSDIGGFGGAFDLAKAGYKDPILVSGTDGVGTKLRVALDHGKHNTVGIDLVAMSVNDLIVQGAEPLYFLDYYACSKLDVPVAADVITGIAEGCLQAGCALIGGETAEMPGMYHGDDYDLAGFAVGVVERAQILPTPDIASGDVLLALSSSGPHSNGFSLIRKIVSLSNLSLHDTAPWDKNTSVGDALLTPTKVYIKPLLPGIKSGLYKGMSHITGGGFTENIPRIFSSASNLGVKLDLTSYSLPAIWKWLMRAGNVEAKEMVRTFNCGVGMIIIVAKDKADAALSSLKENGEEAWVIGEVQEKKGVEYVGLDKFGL
Sequence of UniProt Q6F4M8 (whole entry, looked up): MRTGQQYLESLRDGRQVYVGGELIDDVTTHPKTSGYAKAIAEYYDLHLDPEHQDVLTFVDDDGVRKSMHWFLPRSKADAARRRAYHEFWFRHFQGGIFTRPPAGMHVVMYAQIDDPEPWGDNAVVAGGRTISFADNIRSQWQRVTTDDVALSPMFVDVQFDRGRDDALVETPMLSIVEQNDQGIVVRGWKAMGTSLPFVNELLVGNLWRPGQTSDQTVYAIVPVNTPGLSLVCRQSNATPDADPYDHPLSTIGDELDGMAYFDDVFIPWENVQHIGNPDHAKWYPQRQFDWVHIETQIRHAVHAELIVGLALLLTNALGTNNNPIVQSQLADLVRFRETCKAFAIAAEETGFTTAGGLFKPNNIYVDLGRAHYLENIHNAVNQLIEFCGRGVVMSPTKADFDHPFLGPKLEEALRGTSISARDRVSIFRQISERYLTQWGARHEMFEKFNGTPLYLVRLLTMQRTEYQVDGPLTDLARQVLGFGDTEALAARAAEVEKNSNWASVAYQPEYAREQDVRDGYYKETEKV
Sequence of UniProt Q2RMD6 (whole entry, looked up): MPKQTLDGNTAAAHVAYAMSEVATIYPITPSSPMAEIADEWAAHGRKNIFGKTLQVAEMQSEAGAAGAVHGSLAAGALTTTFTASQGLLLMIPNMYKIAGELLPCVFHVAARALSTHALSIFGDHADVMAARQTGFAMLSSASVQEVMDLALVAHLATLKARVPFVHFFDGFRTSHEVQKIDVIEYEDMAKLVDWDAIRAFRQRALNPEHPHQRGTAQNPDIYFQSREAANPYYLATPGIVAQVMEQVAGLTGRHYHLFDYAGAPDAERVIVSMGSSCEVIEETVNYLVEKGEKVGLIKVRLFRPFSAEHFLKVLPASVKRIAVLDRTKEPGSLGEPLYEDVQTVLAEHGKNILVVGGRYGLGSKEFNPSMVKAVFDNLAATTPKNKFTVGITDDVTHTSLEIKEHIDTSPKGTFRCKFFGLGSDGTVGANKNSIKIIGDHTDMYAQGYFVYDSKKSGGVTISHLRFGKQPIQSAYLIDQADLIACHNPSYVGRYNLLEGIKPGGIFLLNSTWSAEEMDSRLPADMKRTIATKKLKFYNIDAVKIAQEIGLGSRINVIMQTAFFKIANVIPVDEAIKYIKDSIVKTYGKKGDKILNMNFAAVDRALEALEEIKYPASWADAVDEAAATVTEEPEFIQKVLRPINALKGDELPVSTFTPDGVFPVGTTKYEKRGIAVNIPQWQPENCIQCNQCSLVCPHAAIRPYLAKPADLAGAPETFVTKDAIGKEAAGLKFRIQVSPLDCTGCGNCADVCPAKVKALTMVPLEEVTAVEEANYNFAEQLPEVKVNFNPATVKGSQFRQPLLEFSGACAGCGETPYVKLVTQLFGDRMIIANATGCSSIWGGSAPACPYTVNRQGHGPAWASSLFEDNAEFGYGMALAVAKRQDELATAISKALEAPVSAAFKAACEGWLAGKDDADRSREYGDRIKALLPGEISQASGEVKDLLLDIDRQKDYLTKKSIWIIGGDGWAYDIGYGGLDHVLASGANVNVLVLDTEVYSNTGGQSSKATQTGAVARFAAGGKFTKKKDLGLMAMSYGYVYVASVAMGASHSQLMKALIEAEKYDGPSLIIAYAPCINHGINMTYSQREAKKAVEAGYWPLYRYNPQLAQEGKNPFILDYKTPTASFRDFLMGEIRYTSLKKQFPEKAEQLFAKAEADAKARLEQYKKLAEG
Sequence of UniProt P77488 (whole entry, looked up): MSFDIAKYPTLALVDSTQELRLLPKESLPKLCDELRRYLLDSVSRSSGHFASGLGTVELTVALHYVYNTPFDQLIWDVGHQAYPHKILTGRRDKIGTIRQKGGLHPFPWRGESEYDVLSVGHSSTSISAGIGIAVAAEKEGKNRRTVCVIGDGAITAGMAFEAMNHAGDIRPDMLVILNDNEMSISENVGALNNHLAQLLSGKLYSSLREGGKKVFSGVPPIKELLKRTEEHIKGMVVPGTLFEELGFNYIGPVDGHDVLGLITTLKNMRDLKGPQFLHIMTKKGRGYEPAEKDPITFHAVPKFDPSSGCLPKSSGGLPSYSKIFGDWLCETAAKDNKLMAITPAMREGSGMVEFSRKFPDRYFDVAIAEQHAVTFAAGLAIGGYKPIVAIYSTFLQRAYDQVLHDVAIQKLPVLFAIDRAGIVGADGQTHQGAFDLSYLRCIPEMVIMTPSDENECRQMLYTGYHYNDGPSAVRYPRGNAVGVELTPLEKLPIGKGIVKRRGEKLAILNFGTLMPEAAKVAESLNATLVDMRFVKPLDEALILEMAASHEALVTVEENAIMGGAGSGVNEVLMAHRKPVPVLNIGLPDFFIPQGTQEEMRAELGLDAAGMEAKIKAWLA

B1 (Mj-MAT)
Km (CSCC[C@H](N)C(=O)O; 55 °C, together with: ATP 2.5 mM, methionine 0.05-1 mM): 310 µM

ADA (Homo sapiens, UniProt P00813)
Km (Nc1ncnc2c1ncn2[C@@H]1O[C@H](CO)[C@@H](O)[C@H]1O; HEK293, cell homogenate; pH 5.8, 37 °C, not purified): 126 µM

B2 (FDC1)
Km (O=C(O)/C=C/c1ccc(O)cc1; pH 7, 25 °C, apparent kcat, incomplete cofactor occupancy, apparent): 110 µM

PFOR (Moorella thermoacetica, UniProt Q2RMD6)
Km (CC(=O)C(=O)O; pH 7.6, no magnesium, together with: CoA 1 mM, methyl viologen 10 mM, TPP 1 mM): 490 µM

protein (Salinispora arenicola, UniProt A8M783)
Km (I; pH 7.9, 37 °C, apparent, together with: SAM): 20000 µM

B3 (ACP1)
Km (O=[N+]([O-])c1ccc(OP(=O)(O)O)cc1; pH 6.5, 37 °C): 6570 µM

enzyme (Rhodococcus opacus, UniProt Q6F4M8)
Km (O=[N+]([O-])c1ccc(O)cc1; pH 7.5, 25 °C): 56.7 µM

pyc (Rhizobium etli, UniProt Q2K340)
Km (CC(=O)C(=O)O; pH 7.5, 25 °C, together with: MgATP 2.5 mM): 470 µM

ADE5,7 (Cryptococcus neoformans, UniProt J9VYP5)
Km (N[C@@H]1O[C@H](COP(=O)(O)O)[C@@H](O)[C@H]1O; pH 8, 37 °C, apparent): 131 µM

B4 (nicX)
Km (Oc1ccc(O)nc1; pH 7.5, 20 °C, together with: O2; Fe2+ 0.025 mM): 74 µM

dxs (Escherichia coli, UniProt P77488)
Km (O=C(O)C(=O)CO): 47 µM

B5 (enzyme E323G)
Km (OC[C@H]1O[C@@H](O[C@H]2[C@@H](OC[C@H]3O[C@@H](O[C@H]4[C@H](O)[C@@H](O)[C@H](O[C@H]5[C@H](O)[C@@H](O)[C@@H](F)O[C@@H]5CO)O[C@@H]4CO[C@H]4OC[C@@H](O)[C@H](O)[C@H]4O[C@@H]4O[C@H](CO)[C@H](O)[C@H](O)[C@H]4O)[C@H](O)[C@@H](O)[C@@H]3O[C@@H]3O[C@H](CO[C@H]4OC[C@@H](O)[C@H](O)[C@H]4O)[C@@H](O)[C@H](O)[C@H]3O)OC[C@@H](O)[C@@H]2O)[C@H](O)[C@@H](O)[C@H]1O; pH 7.5, 30 °C, apparent): 800 µM

B6 (Nudt8)
Km (CCCC(=O)SCCNC(=O)CCNC(=O)[C@H](O)C(C)(C)COP(=O)(O)OP(=O)(O)OC[C@H]1O[C@@H](n2cnc3c(N)ncnc32)[C@H](O)[C@@H]1OP(=O)(O)O; pH 8.5, together with: 2 mM Mn2+): 224 µM

B7 (protein)
Km (C[C@H](CCCC(CO)CO)[C@H]1CC[C@H]2[C@@H]3[C@H](O)C[C@H]4C[C@H](O)CC[C@]4(C)[C@H]3C[C@H](O)[C@]12C; pH 7, 28 °C, substrate inhibition, together with: PAPS 14 µM): 217 µM

B8
Km (c1ccc2c3c([nH]c2c1)CNCC3; together with: cofactor regeneration): 8.6 µM

B9 (Tat)
Km (O=C(O)CCC(=O)C(=O)O; pH 7, 38 °C, together with: PLP): 1800 µM

alanine aminopeptidase (Neisseria meningitidis, UniProt Q9JYV4)
Km (NC(=O)Cc1cc(=O)oc2cc(NC(=O)[C@@H](N)Cc3ccc4ccccc4c3)ccc12; pH 7.5, 37 °C): 50.7 µM

Excerpt of the above:
B7 (protein)
Km (C[C@H](CCCC(CO)CO)[C@H]1CC[C@H]2[C@@H]3[C@H](O)C[C@H]4C[C@H](O)CC[C@]4(C)[C@H]3C[C@H](O)[C@]12C; pH 7, 28 °C, substrate inhibition, together with: PAPS 14 µM): 217 µM
